Measured values from different studies.
Numbered parts are unrelated; each lists some results of a single study.
Sequence of UniProt P06493 (whole entry, looked up): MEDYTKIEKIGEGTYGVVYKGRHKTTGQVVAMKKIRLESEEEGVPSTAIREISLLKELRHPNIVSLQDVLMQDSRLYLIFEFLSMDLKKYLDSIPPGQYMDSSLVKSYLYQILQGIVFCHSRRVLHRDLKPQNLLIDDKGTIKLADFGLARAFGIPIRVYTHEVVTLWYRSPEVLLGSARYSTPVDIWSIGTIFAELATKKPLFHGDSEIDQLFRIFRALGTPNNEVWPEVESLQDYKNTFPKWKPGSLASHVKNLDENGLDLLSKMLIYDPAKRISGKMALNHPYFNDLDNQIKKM
Sequence of UniProt Q13464 (whole entry, looked up): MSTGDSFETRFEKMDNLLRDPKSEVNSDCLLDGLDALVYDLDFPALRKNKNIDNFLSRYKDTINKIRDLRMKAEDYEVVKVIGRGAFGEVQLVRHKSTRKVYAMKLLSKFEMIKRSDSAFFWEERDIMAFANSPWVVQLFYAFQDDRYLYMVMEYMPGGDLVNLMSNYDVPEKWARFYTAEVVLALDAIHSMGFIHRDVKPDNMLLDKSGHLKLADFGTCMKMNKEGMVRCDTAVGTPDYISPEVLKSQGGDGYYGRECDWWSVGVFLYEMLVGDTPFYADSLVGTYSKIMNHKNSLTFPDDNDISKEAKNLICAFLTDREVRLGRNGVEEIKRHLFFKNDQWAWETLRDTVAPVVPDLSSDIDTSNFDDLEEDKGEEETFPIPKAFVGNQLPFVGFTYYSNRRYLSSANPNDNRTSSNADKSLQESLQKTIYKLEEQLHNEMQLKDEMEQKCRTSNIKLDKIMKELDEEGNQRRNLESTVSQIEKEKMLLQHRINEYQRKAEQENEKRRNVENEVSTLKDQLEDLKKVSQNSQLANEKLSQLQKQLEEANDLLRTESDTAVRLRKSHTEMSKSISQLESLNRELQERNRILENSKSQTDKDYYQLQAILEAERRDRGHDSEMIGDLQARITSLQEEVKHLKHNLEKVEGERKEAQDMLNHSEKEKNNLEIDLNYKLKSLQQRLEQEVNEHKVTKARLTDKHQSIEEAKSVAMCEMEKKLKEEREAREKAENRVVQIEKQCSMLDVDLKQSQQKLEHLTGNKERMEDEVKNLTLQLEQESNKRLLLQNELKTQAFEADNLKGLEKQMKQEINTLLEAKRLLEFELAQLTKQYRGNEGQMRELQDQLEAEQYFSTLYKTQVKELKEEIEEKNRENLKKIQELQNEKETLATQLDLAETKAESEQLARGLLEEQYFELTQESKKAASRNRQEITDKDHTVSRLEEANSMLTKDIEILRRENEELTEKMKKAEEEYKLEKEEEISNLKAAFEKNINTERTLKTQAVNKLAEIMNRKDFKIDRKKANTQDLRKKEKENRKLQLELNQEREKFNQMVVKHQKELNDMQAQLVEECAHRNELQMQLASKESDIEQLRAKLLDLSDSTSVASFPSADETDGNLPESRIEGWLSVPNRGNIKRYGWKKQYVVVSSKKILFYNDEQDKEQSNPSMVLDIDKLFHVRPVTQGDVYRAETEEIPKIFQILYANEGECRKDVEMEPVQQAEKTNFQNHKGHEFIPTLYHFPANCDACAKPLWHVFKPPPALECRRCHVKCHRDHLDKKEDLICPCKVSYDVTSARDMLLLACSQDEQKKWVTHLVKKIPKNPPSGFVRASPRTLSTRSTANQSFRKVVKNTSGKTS
Sequence of UniProt Q8IW41 (whole entry, looked up): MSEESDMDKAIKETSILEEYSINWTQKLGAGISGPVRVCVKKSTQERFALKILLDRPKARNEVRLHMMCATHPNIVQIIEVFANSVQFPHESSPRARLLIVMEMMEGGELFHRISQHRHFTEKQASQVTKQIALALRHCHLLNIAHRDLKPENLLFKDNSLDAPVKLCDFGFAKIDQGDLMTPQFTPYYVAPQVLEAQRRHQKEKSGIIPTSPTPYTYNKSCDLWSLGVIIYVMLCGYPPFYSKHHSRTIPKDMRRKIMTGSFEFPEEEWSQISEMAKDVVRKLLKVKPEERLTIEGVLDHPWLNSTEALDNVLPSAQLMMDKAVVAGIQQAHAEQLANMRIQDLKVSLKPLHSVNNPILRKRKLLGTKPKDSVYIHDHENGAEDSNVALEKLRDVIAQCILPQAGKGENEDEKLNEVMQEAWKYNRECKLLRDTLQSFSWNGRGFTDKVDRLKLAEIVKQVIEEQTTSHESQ
Sequence of UniProt P51956 (whole entry, looked up): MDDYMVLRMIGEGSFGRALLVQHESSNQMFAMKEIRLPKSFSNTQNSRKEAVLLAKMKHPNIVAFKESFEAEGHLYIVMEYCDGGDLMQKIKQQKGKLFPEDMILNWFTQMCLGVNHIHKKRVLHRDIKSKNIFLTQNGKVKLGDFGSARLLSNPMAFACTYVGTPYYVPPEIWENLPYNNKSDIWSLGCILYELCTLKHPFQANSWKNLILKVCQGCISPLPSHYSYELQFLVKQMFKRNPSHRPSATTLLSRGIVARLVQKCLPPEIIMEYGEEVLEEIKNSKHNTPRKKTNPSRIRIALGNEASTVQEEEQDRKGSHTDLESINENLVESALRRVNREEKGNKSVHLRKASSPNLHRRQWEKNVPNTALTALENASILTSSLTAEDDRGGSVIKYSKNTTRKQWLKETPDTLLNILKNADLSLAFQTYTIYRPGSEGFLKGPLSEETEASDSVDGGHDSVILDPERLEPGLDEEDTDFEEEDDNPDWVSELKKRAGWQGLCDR
Sequence of UniProt Q8N568 (whole entry, looked up): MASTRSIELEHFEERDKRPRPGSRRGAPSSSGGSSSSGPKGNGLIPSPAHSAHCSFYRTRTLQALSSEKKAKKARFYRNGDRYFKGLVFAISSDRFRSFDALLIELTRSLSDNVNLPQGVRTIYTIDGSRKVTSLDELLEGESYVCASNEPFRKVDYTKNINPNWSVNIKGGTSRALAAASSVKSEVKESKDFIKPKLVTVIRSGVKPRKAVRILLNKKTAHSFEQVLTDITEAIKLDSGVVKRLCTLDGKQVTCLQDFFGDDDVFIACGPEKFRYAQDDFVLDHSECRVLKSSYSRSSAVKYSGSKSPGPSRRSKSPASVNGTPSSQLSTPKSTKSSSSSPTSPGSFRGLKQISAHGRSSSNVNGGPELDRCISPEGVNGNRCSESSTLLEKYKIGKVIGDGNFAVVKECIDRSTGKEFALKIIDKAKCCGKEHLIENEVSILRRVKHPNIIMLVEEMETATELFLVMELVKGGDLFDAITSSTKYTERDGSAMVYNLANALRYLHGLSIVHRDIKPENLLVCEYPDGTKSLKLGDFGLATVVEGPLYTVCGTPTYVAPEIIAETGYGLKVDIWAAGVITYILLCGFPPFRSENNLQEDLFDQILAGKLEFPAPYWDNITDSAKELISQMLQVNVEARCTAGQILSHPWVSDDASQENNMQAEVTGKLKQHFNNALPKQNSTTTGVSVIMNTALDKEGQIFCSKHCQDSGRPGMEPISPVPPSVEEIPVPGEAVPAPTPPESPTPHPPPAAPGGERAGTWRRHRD
Sequence of UniProt P49761 (whole entry, looked up): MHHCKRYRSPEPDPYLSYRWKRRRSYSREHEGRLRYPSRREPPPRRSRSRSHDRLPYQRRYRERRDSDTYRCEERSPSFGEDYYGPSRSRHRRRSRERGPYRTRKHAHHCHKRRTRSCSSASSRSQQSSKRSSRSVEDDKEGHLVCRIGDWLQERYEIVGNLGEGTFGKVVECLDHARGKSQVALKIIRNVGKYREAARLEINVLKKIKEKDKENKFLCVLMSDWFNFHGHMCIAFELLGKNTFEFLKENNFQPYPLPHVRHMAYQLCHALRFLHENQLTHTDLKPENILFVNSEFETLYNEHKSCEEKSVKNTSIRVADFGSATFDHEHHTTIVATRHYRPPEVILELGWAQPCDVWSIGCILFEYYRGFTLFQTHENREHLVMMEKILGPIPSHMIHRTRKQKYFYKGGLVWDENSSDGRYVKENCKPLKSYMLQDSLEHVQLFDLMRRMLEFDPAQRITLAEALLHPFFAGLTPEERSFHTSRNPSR
Sequence of UniProt Q16539 (whole entry, looked up): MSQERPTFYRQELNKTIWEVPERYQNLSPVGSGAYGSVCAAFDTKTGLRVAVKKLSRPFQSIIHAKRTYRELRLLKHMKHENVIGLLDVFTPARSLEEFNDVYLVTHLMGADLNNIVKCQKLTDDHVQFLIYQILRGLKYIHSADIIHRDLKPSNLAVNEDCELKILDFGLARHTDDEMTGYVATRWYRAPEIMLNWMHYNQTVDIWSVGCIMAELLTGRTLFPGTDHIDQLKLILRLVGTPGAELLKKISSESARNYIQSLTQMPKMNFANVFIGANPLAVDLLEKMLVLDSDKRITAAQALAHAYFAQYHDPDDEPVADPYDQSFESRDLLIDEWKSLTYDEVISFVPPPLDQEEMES
Sequence of UniProt Q6P2M8 (whole entry, looked up): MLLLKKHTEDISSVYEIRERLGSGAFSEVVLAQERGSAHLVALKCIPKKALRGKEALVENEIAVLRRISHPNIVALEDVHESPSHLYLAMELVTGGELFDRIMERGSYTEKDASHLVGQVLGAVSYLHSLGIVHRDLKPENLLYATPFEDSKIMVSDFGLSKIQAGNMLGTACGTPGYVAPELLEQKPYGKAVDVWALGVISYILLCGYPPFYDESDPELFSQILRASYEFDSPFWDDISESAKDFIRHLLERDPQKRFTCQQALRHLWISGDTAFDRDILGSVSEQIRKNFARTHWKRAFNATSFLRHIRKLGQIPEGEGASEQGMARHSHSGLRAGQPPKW

Series 1 — observed: enzyme activity; action: inhibitor; tested at: 0.5 µM; reference: control; quantity: remaining activity
Structure (SMILES): c1cc(-c2cnn3cc(-c4ccc(OCCN5CCCCC5)cc4)cnc23)ccn1
KDR (Homo sapiens, UniProt P35968): 22.2%
ROCK1 (Homo sapiens, UniProt Q13464): 92.2%
MAPK11 (Homo sapiens, UniProt Q15759): 96.9%
MET (Homo sapiens, UniProt P08581): 91.1%
MAPK14 (Homo sapiens, UniProt Q16539): 92.2%
MAP2K1 (Homo sapiens, UniProt Q02750): 98.8%
MAPK1 (Homo sapiens, UniProt P28482): 99.3%
PRKG2 (Homo sapiens, UniProt Q13237): 77.4%
PAK3 (Homo sapiens, UniProt O75914): 102%
NEK3 (Homo sapiens, UniProt P51956): 111%
Cyclin-dependent kinase 1, with cyclin A (CDK1, Homo sapiens, UniProt P06493): 92.2%
DCLK2 (Homo sapiens, UniProt Q8N568): 94.1%
PNCK (Homo sapiens, UniProt Q6P2M8): 100%

Series 2 — technique: RNA Bind-n-Seq; form: RNA; sample: in vitro; tested at: 20 nM; notes: 6-mer, flanks averaged, single round; added: 150 mM LiCl; reference: input library; direction: higher = stronger binding; quantity: 6-mer enrichment (R)
Target: TAR DNA-binding protein 43, full length, His tag (TARDBP, Homo sapiens, UniProt Q13148, residues 1-414)
UCUUCG: 0.842
GGCGAG: 1.15
AAUUAA: 0.948
CGGGUG: 1.21
GAAGCU: 0.885
CCAGUC: 0.864
UUACAA: 0.894
CCGCAG: 0.929

Series 3 — technique: Sort-seq; refers to: YFP reporter; sample: E. coli; notes: PhoQ-PhoP variant library; added: 10 µM Mg2+; reference: high Mg2+ state; direction: higher = stronger signaling; quantity: fold induction
Substance: PhoQ, residues 284 288 289 292 302 303 AGGCYF
PhoP, residues 12 14 15 18 19 TQALL (Escherichia coli, UniProt P23836): 2
PhoP, residues 12 14 15 18 19 QYFSL (Escherichia coli, UniProt P23836): 15.5
PhoP, residues 12 14 15 18 19 NYFRM (Escherichia coli, UniProt P23836): 13.8

Series 4 — observed: cell-free assay; technique: competition with immobilised ligand; tested at: 0.1 µM; quantity: remaining binding
SMILES: C[C@@H]1CN(c2cc(-c3n[nH]c4ccc(OC5(C)CC5)cc34)ncn2)C[C@H](C)O1
BRSK1 (Homo sapiens, UniProt Q8TDC3): 96%
OXSR1 (Homo sapiens, UniProt O95747): 72%
CDKL5 (Homo sapiens, UniProt O76039): 72%
HASPIN (Homo sapiens, UniProt Q8TF76): 74%
SRC (Homo sapiens, UniProt P12931): 81%
DAPK1 (Homo sapiens, UniProt P53355): 93%
Macrophage colony-stimulating factor 1 receptor, autoinhibited (CSF1R, Homo sapiens, UniProt P07333): 84%
CLK3 (Homo sapiens, UniProt P49761): 94%
MET (Homo sapiens, UniProt P08581): 100%
MAPKAPK5 (Homo sapiens, UniProt Q8IW41): 93%
eIF-2-alpha kinase GCN2, C-terminal kinase domain (EIF2AK4, Homo sapiens, UniProt Q9P2K8, S808G): 81%
PIP4K2C (Homo sapiens, UniProt Q8TBX8): 90%
STK35 (Homo sapiens, UniProt Q8TDR2): 85%

A few entries again (series 4):
CLK3 (Homo sapiens, UniProt P49761): 94%
SRC (Homo sapiens, UniProt P12931): 81%
OXSR1 (Homo sapiens, UniProt O95747): 72%
eIF-2-alpha kinase GCN2, C-terminal kinase domain (EIF2AK4, Homo sapiens, UniProt Q9P2K8, S808G): 81%
BRSK1 (Homo sapiens, UniProt Q8TDC3): 96%
